Experimental data from different studies.
Each line is one published result; not all experiments were run side by side. Several values in a cell are separate wells, animals, samples, runs or records.
MAPK9: Mitogen-activated protein kinase 9 (MAPK9, Homo sapiens, UniProt P45984)

SMILES = NC(=O)C[C@H]1CCc2sc3ncnc(O[C@H]4CC[C@H](N5CCOCC5)CC4)c3c21; target = MAPK9; test = enzyme activity, inhibitor; setting = 10 µM; measurement = inhibition; result = -4%
SMILES = Nc1ncc2c(n1)-c1c([nH]c3ccc(C4=CCOCC4)cc13)CCC2; target = MAPK9; test = binding, competition with immobilised ligand; setting = 1 µM; measurement = remaining binding; result = 97%
SMILES = C#CCOC(=O)[C@]1(C)C=C(C(=O)Nc2cccc(C(=O)Nc3ccc(C)c(Nc4nccc(-c5cccnc5)n4)c3)c2)C(=O)CC1; target = MAPK9; test = enzyme activity, inhibitor; setting = 0.5487 µM, unit not given; how to read = relative to: vehicle; measurement = remaining activity; result = 0.246
SMILES = COc1cc(Nc2nc(C)cc(-c3cnn4nc(OC)ccc34)n2)cc(C(F)(F)F)c1; target = MAPK9; test = KINOMEscan; setting = 1 µM, JNK2; how to read = relative to: DMSO; measurement = remaining binding; result = 82%
SMILES = C=CC(=O)Nc1cccc(-c2cnc3[nH]cc(C(=O)NC(C)(C)C)c3n2)c1; target = MAPK9; test = enzyme activity, inhibitor; setting = 0.1 µM; measurement = inhibition; result = -6%
SMILES = CN1CCN(Cc2ccc(NC(=O)c3cccc(C#Cc4cnc(N)c5ncccc45)c3)cc2C(F)(F)F)CC1; target = MAPK9; test = cell-free assay, competition with immobilised ligand; setting = 50 nM; measurement = remaining binding; result = 42%
SMILES = Cc1cccc(-c2ccc3nc(NC(=O)C4CCOCC4)nn3c2)c1; target = MAPK9; test = enzyme activity, Dundee kinase panel; setting = 10 µM; measurement = remaining activity; result = 82%
SMILES = N[C@H]1CC[C@H](Nc2nccc(-c3cccnc3Oc3ccc(NC(=O)NC4CC4)c4ccccc34)n2)CC1; target = MAPK9; test = kinobead competition pulldown; system = HEK293/HCT116 lysate mixture; setting = 10 µM, 1 h, 4 °C; how to read = lower = stronger competition; measurement = log2 LFQ intensity; result = 22.7 and 22.5 and 19.9 and 23.7
SMILES = Cc1cnc2nc1Nc1cccc(c1)COC/C=C/COCc1cc(ccc1OCCN1CCOCC1)N2; target = MAPK9; setting = concentration not given, kinase construct JNK2; how to read = relative to: control; measurement = binding; result = 60%
SMILES = CCN1CCN(Cc2ccc(C(=O)Nc3ccc(C)c(NCc4cnc5[nH]ccc5c4OC)c3)cc2C(F)(F)F)CC1; target = MAPK9; test = binding, competition with immobilised ligand; setting = 1 µM; measurement = remaining binding; result = 9.2%
SMILES = COC(=O)[C@@]1(C)C=C(C(=O)Nc2cccc(C(=O)Nc3ccc(Nc4nccc(-c5cccnc5)n4)c(C)c3)c2)C(=O)CC1; target = MAPK9; test = enzyme activity, inhibitor, radiometric; setting = 1 µM; measurement = remaining activity; result = 7%
SMILES = Cc1cccc(O[C@H]2CCC[C@@H](C(C)CNCc3ccncc3)C2)c1 (relative stereo); target = MAPK9; test = kinase activity, kinome panel screening; setting = 1 µM; measurement = inhibition; result = 2%
SMILES = Cc1cc(NC(=O)c2cccc(N)c2)ccc1Nc1nccc(-c2cccnc2)n1; target = MAPK9; test = enzyme activity, inhibitor; setting = 0.06097 µM, unit not given; how to read = relative to: vehicle; measurement = remaining activity; result = 0.979
SMILES = COc1ccc(C(=O)/C=C/c2ccccc2-c2c[nH]c3ccc(C#N)cc23)c(O)c1; target = MAPK9; test = enzyme activity, inhibitor; setting = 20 µM; measurement = inhibition; result = -1%
SMILES = CCN1CCN(Cc2ccc(NC(=O)c3ccc(C)c(NC(=O)c4cncc(-c5cccs5)c4)c3)cc2C(F)(F)F)CC1; target = MAPK9; test = binding, competition with immobilised ligand; setting = 1 µM; measurement = remaining binding; result = 24%
SMILES = C=CC(=O)N1CCCC(n2c(=O)c3ncccc3n(Cc3ccc(Oc4ccccc4)cc3)c2=O)C1 (centres unmarked); target = MAPK9; test = cell-free assay, competition with immobilised ligand; setting = 1 µM; measurement = remaining binding; result = 69%
SMILES = CC(=O)N1c2ccc(-c3ccc(CNC(=O)c4cn5cc(-c6cnc(N)nc6)nc(N6CCOCC6)c5n4)cc3)cc2CC[C@@H]1C; target = MAPK9; test = KINOMEscan; setting = 10 µM; measurement = remaining binding; result = 63%
SMILES = CC(=O)Nc1ccc(-c2ccnc(NCC3CCC3)n2)cc1; target = MAPK9; test = cell-free assay, competition with immobilised ligand; setting = 10 µM; measurement = remaining binding; result = 17%
SMILES = CC(C)=CC1OC(C)(C)C2C=C3C(=O)C(Cl)=CC(O)C3C3C(O)C4OC4C(=O)C132 (centres unmarked); target = MAPK9; test = cell-free assay, competition with immobilised ligand; setting = 10 µM; measurement = remaining binding; result = 83%
SMILES = CN1CC[C@@H](COc2cnc(C#N)cc2-c2ccn3nc(NC(=O)C4CC4)cc3c2)C1; target = Mitogen-activated protein kinase 9, isoform alpha2 (MAPK9, Homo sapiens, UniProt P45984); test = kinase activity, inhibitor; setting = 1 µM, with: ATP 45 µM; measurement = inhibition; result = -4%
